Experimental data gathered from unrelated publications.
Each numbered part is a random draw from the data of one study; scales do not carry over between parts.
UniProt P10721, sequence (whole entry, unmodified, looked up): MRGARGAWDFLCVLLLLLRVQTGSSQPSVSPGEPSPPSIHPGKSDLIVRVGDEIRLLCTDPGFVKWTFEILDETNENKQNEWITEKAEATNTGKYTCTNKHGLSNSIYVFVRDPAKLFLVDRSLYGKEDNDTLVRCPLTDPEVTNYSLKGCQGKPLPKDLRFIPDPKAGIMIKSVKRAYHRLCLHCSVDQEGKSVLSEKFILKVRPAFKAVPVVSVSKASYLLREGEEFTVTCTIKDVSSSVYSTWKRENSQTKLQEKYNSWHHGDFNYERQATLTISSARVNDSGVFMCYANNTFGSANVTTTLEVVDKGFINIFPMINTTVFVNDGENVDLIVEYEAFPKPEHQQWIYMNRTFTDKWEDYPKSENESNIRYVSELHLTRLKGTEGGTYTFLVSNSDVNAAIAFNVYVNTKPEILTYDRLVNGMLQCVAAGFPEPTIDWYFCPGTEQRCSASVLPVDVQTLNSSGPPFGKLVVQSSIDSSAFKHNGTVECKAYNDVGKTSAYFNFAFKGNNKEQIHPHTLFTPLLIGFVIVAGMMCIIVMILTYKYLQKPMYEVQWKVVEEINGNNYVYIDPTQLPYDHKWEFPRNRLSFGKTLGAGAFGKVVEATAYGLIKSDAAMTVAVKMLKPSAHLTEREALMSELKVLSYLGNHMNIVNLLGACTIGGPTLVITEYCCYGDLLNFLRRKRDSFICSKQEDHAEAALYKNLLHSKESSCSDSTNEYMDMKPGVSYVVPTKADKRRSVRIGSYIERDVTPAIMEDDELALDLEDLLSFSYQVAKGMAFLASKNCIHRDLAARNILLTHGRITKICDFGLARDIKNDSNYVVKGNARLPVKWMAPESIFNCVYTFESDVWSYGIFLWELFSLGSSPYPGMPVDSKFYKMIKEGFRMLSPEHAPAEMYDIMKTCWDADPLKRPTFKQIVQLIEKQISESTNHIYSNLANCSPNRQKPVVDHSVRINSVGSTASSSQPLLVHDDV
UniProt P54756, sequence (whole entry, looked up): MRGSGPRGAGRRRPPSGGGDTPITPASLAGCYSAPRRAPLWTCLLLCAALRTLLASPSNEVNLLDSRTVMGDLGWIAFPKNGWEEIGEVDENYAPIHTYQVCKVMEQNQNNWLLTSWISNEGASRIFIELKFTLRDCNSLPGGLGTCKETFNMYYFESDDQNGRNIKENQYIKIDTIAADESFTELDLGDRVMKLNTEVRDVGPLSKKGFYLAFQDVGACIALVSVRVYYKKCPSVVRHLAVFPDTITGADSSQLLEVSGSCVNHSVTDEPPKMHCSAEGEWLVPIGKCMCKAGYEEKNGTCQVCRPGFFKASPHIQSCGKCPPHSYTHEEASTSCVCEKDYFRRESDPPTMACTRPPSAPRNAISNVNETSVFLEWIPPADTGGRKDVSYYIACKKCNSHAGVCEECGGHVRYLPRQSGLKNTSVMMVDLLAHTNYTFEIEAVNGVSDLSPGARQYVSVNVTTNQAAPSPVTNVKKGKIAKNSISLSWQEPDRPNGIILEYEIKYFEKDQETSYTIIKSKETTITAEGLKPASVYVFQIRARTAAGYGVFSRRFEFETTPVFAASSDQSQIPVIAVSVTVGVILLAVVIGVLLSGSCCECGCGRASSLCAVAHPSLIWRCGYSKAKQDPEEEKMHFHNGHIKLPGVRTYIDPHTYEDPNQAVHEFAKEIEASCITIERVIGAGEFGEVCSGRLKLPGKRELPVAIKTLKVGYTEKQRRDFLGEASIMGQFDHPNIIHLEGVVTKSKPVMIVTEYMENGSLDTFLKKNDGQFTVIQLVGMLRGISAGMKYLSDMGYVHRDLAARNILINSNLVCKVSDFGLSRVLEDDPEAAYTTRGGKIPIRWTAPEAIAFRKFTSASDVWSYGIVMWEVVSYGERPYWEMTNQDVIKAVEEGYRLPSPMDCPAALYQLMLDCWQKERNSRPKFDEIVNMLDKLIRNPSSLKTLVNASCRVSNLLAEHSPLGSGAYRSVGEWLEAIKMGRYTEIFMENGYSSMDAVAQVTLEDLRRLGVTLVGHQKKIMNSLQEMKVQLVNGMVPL
UniProt P42684, sequence (whole entry, looked up): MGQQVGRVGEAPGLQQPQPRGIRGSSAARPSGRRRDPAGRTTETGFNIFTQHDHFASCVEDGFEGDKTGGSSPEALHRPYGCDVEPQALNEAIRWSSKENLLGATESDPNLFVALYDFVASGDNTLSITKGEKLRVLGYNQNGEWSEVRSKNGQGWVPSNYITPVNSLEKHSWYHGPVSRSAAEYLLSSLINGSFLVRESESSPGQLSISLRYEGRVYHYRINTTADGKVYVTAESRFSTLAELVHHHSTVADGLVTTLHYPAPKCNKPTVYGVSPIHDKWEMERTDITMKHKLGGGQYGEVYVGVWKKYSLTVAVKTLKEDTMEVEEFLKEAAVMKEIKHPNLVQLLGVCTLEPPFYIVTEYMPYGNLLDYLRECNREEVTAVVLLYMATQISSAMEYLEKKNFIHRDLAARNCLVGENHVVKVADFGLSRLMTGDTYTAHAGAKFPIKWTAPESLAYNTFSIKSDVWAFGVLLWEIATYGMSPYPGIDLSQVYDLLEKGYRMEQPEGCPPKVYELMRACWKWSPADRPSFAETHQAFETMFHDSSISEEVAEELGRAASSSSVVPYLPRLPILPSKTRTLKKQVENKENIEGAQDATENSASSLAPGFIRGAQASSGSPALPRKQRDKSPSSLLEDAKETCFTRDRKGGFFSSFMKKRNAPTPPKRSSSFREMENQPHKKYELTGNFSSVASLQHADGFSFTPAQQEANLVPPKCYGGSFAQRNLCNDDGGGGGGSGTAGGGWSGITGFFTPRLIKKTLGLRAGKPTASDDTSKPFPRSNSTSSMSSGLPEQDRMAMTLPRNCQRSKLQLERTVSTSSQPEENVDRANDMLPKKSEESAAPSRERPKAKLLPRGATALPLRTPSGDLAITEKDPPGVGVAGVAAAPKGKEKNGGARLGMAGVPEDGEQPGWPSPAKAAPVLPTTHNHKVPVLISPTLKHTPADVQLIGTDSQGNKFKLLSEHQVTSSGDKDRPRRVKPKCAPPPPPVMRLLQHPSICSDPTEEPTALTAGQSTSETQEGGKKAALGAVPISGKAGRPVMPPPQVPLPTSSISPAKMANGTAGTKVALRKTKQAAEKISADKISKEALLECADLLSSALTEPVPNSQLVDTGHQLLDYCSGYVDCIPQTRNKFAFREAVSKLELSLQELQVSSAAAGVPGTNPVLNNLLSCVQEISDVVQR
UniProt Q15208, sequence (whole entry, looked up): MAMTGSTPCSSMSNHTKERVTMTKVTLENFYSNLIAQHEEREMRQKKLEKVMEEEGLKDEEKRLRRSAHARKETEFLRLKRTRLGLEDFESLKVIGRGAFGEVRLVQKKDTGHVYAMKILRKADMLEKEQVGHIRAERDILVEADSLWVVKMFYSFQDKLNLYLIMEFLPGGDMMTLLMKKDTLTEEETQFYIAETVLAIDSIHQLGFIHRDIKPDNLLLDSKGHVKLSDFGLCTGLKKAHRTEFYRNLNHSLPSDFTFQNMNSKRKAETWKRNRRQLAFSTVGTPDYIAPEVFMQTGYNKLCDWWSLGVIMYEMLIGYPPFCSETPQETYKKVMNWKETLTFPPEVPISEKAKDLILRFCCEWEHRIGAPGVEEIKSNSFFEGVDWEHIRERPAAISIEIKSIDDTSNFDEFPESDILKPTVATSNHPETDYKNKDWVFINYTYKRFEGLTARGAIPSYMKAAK
UniProt P30291, sequence (whole entry, looked up): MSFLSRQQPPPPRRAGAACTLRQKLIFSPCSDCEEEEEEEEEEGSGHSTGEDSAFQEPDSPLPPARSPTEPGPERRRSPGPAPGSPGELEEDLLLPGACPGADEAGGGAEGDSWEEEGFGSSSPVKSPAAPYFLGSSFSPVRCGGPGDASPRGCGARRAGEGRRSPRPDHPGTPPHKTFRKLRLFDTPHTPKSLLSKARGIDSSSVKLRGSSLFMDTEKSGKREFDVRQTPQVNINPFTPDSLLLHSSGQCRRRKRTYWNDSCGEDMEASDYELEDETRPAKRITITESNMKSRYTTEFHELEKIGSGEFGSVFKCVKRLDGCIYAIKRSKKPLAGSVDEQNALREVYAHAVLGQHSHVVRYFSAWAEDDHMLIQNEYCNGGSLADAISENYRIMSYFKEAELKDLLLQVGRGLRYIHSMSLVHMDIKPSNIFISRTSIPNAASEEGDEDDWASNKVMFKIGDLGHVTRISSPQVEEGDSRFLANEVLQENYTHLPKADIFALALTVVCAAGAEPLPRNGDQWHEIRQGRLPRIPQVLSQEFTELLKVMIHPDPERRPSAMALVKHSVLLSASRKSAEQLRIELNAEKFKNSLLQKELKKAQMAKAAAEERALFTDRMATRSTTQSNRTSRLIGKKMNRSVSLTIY

Series 1
Target: Eukaryotic initiation factor 4A-I (EIF4A1, Homo sapiens, UniProt P60842, residues 1-406, full length assumed)
UniProt P60842, sequence (whole entry, looked up): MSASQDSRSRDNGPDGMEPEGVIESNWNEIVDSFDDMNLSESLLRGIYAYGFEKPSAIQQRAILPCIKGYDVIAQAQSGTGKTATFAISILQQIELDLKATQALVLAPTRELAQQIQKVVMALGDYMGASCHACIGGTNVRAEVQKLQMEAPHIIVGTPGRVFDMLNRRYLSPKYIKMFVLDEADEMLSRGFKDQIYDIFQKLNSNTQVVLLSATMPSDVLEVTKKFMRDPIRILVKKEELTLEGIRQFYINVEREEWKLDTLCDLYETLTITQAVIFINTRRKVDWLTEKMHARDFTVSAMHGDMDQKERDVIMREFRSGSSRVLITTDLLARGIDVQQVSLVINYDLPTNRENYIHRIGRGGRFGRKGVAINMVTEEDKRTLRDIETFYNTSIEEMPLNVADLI
Technique: RNA Bind-n-Seq
Molecule type: RNA
Medium: in vitro
Concentration: 15 pmol
Setting: 4-mer, random 30-nt RNA, single round
With: 3 µM DMDA-PatA, 2 mM AMP-PNP
Relative to: input library
Direction: higher = stronger binding
With `GUGC` the 4-mer enrichment was 1.28 fold.
With `AUAG` the 4-mer enrichment was 1.29 fold.
The 4-mer enrichment of `CAGC` is reported as 0.465 fold.
The 4-mer enrichment of `AUUU` is reported as 1.06 fold.
`GAGC` has a 4-mer enrichment of 1.02 fold.
`UAAU` gave a 4-mer enrichment of 1.22 fold.
`GUCC` gave a 4-mer enrichment of 0.727 fold.
The 4-mer enrichment of `GCCU` is reported as 0.62 fold.

Series 2
SMILES: CCCCc1c(-c2ccc(OC)cc2)[nH]c2nccnc12
Effect on: enzyme activity
Action: inhibitor
Concentration: 0.5 µM
Relative to: control
For Serine/threonine-protein kinase TAO2 (TAOK2, Homo sapiens, UniProt Q9UL54): remaining activity read 90.1%.
For Serine/threonine-protein kinase TBK1 (TBK1, Homo sapiens, UniProt Q9UHD2): remaining activity read 81.4%.
It gave 86.9% for remaining activity (Serine/threonine-protein kinase Nek1 (NEK1, Homo sapiens, UniProt Q96PY6)).
Serine/threonine-protein kinase Nek6 (NEK6, Homo sapiens, UniProt Q9HC98) — remaining activity: 111%.
For Mitogen-activated protein kinase kinase kinase 14 (MAP3K14, Homo sapiens, UniProt Q99558): remaining activity read 105%.
Dual specificity mitogen-activated protein kinase kinase 2 (MAP2K2, Homo sapiens, UniProt P36507) — remaining activity: 79.4%.
Fibroblast growth factor receptor 1 (FGFR1, Homo sapiens, UniProt P11362) — remaining activity: 83.3%.
Wee1-like protein kinase (WEE1, Homo sapiens, UniProt P30291) — remaining activity: 85.9%.
It gave 108% for remaining activity (Serine/threonine-protein kinase ULK2 (ULK2, Homo sapiens, UniProt Q8IYT8)).
The remaining activity was 70.2% (Glycogen synthase kinase-3 beta (GSK3B, Homo sapiens, UniProt P49841)).
For Tyrosine-protein kinase ABL2 (ABL2, Homo sapiens, UniProt P42684): remaining activity read 70.5%.
For Angiopoietin-1 receptor (TEK, Homo sapiens, UniProt Q02763): remaining activity read 96.3%.
Ribosomal protein S6 kinase alpha-2 (RPS6KA2, Homo sapiens, UniProt Q15349) — remaining activity: 93%.

Series 3
Target: Centromere-binding protein 1, full length, N-terminal tag (CBF1, Saccharomyces cerevisiae, UniProt P17106, residues 1-351)
UniProt P17106, sequence (whole entry, looked up): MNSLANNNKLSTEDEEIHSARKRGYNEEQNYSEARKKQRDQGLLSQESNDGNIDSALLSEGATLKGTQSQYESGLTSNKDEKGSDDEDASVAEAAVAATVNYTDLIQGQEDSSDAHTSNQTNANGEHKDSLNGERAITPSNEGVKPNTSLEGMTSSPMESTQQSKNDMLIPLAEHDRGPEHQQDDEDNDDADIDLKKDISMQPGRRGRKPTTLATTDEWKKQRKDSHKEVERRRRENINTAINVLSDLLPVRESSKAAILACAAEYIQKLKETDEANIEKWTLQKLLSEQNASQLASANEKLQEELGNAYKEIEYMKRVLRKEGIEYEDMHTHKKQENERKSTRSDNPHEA
Technique: protein-binding microarray
Molecule type: double-stranded DNA, one strand shown
Medium: in vitro
Concentration: 0.8 µM
Setting: whole 60-bp probe, no competitor
Direction: higher = stronger binding
The fluorescence intensity of `GAATTTAAGTTGTTTCATATGATGTACTTTTCTTAGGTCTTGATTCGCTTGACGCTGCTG` is reported as 514 a.u.
With `CTATAAATTGAACGTCACGGTAATACTACATAATTCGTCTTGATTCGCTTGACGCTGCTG` the fluorescence intensity was 601 a.u.
The fluorescence intensity of `CTATGAAATTTCTGTCACGATTATGTGCGGCGCTTCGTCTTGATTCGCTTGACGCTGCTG` is reported as 746 a.u.
With `CCTAACTACTATACTTTTCACGTATAGCTTCGTACAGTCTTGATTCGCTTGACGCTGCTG` the fluorescence intensity was 546 a.u.
The fluorescence intensity of `GAAAACCATAAAGGACATCAGAAGAGTTTTACATAGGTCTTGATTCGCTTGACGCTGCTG` is reported as 515 a.u.
For `GAAAAATTTTTATACAACATGACTTTTTCAGTTTAGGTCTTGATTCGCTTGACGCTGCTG`, the fluorescence intensity was 567 a.u.
`CTATCGATCATACAATACATCAGGACCTGCGTATTCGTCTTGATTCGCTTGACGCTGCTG` has a fluorescence intensity of 556 a.u.
For `GAAATTCCTCGCCATCACCATGCGCTGTTTTTATAGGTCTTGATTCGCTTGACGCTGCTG`, the fluorescence intensity was 517 a.u.

Series 4
Structure (SMILES): C[C@H](c1ccc(F)cc1)N(Cc1cccc(C(=O)O)c1)C(=O)c1cnc2ccccc2c1
Effect on: cell-free assay
Technique: competition with immobilised ligand
Concentration: 1 µM
It gave 73% for remaining binding (Tyrosine-protein kinase ABL1, non-phosphorylated (ABL1, Homo sapiens, UniProt P00519, H396P)).
Serine/threonine-protein kinase 38 (STK38, Homo sapiens, UniProt Q15208) — remaining binding: 100%.
The remaining binding was 95% (TRAF2 and NCK-interacting protein kinase (TNIK, Homo sapiens, UniProt Q9UKE5)).
Tyrosine-protein kinase Yes (YES1, Homo sapiens, UniProt P07947) — remaining binding: 100%.
1-phosphatidylinositol 3-phosphate 5-kinase (PIKFYVE, Homo sapiens, UniProt Q9Y2I7) — remaining binding: 100%.
The remaining binding was 100% (Epidermal growth factor receptor (EGFR, Homo sapiens, UniProt P00533, del752-759)).
For Ephrin type-A receptor 5 (EPHA5, Homo sapiens, UniProt P54756): remaining binding read 98%.
It gave 100% for remaining binding (Epidermal growth factor receptor (EGFR, Homo sapiens, UniProt P00533, L861Q)).
It gave 92% for remaining binding (Mast/stem cell growth factor receptor Kit (KIT, Homo sapiens, UniProt P10721, A829P)).
The remaining binding was 98% (Mast/stem cell growth factor receptor Kit (KIT, Homo sapiens, UniProt P10721, T670I/V559D)).
The remaining binding was 100% (Mast/stem cell growth factor receptor Kit (KIT, Homo sapiens, UniProt P10721, D816V)).

A few entries again (series 4):
The remaining binding was 100% (Epidermal growth factor receptor (EGFR, Homo sapiens, UniProt P00533, del752-759)).
Tyrosine-protein kinase Yes (YES1, Homo sapiens, UniProt P07947) — remaining binding: 100%.
The remaining binding was 95% (TRAF2 and NCK-interacting protein kinase (TNIK, Homo sapiens, UniProt Q9UKE5)).
Serine/threonine-protein kinase 38 (STK38, Homo sapiens, UniProt Q15208) — remaining binding: 100%.
